Published values pooled from the literature.
Every numbered part comes from another study and shows a few of its results, in no order.

Set 1 — method: RNA Bind-n-Seq; molecule type: RNA; medium: in vitro; concentration: 365 nM; reference: no-protein control; direction: higher = stronger binding; quantity: RBNS enrichment (R)
Target: RNA binding protein fox-1 homolog 2, RRM domain, GST-SBP tag (RBFOX2, Homo sapiens, UniProt O43251-10, residues 100-194)
Setting: natural RNA segment, single round, ends assumed
GGGAGUUCUACAGUCCGACGAUCUGUGAGUUGCAACUCCUUUGUCAAACCUCUAGCUCAACUCAAAACAGUAGCAAAAUUAAUUGUGAAGUAGCAAUGAAAAUAACCUUCUGGUUGGGGGCCACCAUGAGGAAUGGAAUUCUCGGGUGCCAA: 0.371
GGGAGUUCUACAGUCCGACGAUCAGAUCACACCACUGCACUCCAGCCUGGGUGACAGAGCAAGACCCUGUCUCAAAAAAAAAAAAAAAAAAAAUGGAAGUUGUGGUCACAAUGCCCAGGCUUCUUUGUUAUAGUGGAAUUCUCGGGUGCCAA: 0.682
GGGAGUUCUACAGUCCGACGAUCGUCUCCAUCCUUCCCUCUCCUUUUCUGUCACCUUUCCCCCUAGCUGGCUCCUUUGGACCUACCCCUGUCCUUGCUGACUUGUGUUGCAUUGUAUUCCAAACGUGUUUACAUGGAAUUCUCGGGUGCCAA: 0.816
GGGAGUUCUACAGUCCGACGAUCCCAAGCAAGCUUUUUCCUUCAUAUGAGCUGUCAUACUGUAUUUUGACCUCUUUCUGCACGAAAAAAGAAAGAAAAAUGACAGCUGGAAAAAGUCCUUUGUAUUGGCACAUUGGAAUUCUCGGGUGCCAA: 19

Set 2 — method: universal PBM; molecule type: double-stranded DNA, one strand shown; medium: in vitro; concentration: not given; direction: higher = stronger binding; quantity: E-score
Target: Sal-like protein 4, full length isoform B (SALL4, Homo sapiens, UniProt Q9UJQ4-2, residues 1-616)
Setting: 8-mer, flanks averaged, mean of replicates
GCAGCTAA: -0.269
CGAGTCAC: -0.221
AAACCTGC: -0.0615

Set 3 — method: protein binding microarray; molecule type: double-stranded DNA, one strand shown; medium: in vitro; concentration: not given; reference: not given; direction: higher = stronger binding; quantity: E-score
Target: Histone acetyltransferase KAT6A, winged helix 2, GST fusion (KAT6A, Homo sapiens, UniProt Q92794, residues 85-181)
Setting: 8-mer, flanks averaged, mean of 2 arrays, mostly near background
Residues (chain): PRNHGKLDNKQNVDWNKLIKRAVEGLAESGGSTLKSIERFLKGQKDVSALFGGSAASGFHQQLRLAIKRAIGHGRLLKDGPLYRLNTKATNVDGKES
ATATGGTC: -0.0669
ACTTGGCA: -0.08
GACCAACA: 0.0844

Single results of other studies
PhoQ, residues 284 288 289 292 302 303 TLSLKA
fold induction (PhoP, residues 12 14 15 18 19 SPWRL (Escherichia coli, UniProt P23836); Sort-seq, item: YFP reporter; E. coli; PhoQ-PhoP variant library, added: 10 µM Mg2+; reference: high Mg2+ state, higher = stronger signaling): 21

Repeated from above (set 1):
GGGAGUUCUACAGUCCGACGAUCAGAUCACACCACUGCACUCCAGCCUGGGUGACAGAGCAAGACCCUGUCUCAAAAAAAAAAAAAAAAAAAAUGGAAGUUGUGGUCACAAUGCCCAGGCUUCUUUGUUAUAGUGGAAUUCUCGGGUGCCAA: 0.682
